Results collected from several papers.
Each numbered part is a random draw from the data of one study; scales do not carry over between parts.

Sample 1 — technique: protein binding microarray; molecule type: double-stranded DNA, one strand shown; sample: in vitro; concentration: not given; baseline: not given; reading: higher = stronger binding
Target: Histone acetyltransferase KAT6A, winged helix 1, GST fusion (KAT6A, Homo sapiens, UniProt Q92794, residues 1-85)
Notes: 8-mer, flanks averaged, mean of 2 arrays, mostly near background
Residues (chain): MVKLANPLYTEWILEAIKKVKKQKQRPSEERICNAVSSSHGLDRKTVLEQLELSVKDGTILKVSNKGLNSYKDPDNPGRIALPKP
With `CAGTCATA` the E-score was -0.206.
The E-score of `GTGGGCTA` is reported as -0.194.
For `CCCAGTCA`, the E-score was -0.157.
For `CGCGAAAA`, the E-score was 0.182.
`AACTAAGA` has an E-score of -0.0748.
`AGATAATA` has an E-score of -0.0822.

Sample 2 — technique: universal PBM; molecule type: double-stranded DNA, one strand shown; sample: in vitro; concentration: 600 nM; reading: higher = stronger binding
Target: Sal-like protein 4, full length isoform A (SALL4, Homo sapiens, UniProt Q9UJQ4, residues 1-1053)
Chain of UniProt Q9UJQ4 (whole entry, looked up): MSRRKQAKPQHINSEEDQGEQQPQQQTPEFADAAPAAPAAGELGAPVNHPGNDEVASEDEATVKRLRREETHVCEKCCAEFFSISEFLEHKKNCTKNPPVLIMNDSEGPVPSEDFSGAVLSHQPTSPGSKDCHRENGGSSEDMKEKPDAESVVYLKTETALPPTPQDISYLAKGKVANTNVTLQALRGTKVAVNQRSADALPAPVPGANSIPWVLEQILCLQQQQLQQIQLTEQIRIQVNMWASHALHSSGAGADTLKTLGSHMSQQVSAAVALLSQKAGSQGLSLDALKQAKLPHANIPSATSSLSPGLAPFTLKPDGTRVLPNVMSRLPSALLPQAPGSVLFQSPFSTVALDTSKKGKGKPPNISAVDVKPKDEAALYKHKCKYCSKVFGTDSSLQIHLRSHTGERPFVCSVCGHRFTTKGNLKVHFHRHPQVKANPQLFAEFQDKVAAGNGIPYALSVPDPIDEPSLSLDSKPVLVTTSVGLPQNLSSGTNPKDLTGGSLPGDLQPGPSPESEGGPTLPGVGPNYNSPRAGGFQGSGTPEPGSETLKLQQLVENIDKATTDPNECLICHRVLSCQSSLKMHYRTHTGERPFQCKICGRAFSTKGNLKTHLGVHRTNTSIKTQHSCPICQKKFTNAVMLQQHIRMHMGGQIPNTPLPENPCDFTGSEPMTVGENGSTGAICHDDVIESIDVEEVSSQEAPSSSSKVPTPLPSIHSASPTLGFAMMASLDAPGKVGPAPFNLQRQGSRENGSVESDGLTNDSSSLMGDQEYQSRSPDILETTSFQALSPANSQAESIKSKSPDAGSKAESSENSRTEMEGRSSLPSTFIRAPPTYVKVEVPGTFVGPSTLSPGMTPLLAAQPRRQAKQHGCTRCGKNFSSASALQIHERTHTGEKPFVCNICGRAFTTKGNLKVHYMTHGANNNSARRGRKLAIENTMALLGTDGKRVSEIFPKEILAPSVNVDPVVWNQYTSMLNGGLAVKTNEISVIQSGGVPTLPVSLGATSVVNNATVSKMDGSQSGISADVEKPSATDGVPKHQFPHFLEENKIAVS
Notes: 8-mer, flanks averaged, mean of replicates
`CCTTTTTC` has an E-score of 0.0331.
The E-score of `AAAAACCA` is reported as 0.241.
With `ACAAGGAG` the E-score was 0.116.
`CGCCGGGC` has an E-score of -0.407.
For `ATCTGTAC`, the E-score was 0.227.
The E-score of `CCAGTGGG` is reported as -0.381.

Further values, each from its own experiment
Fmr1 C-terminal low-complexity region: Fragile X messenger ribonucleoprotein 1, C-terminal low-complexity region (Fmr1, Mus musculus, UniProt P35922)
For `GGGAGUUCUACAGUCCGACGAUCUCCCAGCCGAGGACGUCGGAUGUCAUCGUCCUUGCUGCUUUGCCACCCCAUUCCCGUCAAUAAAGUGGUUUGAACCCAACCCUGGUGUCGUGGAAUUCUCGGGUGUCAAGG (7-deaza-guanosine replaces G)`, the log2 enrichment was -0.591 (Fmr1 C-terminal low-complexity region; RNA Bind-n-Seq; RNA, in vitro; 200 nM, whole 134-nt RNA, ends assumed, together with: 150 mM LiCl; baseline: input library, higher = stronger binding).
`PhoQ, residues 284 288 289 292 302 303 TNASYF` has a fold induction of 0.994 (PhoP, residues 12 14 15 18 19 TPWLV (Escherichia coli, UniProt P23836); Sort-seq, refers to: YFP reporter; E. coli; PhoQ-PhoP variant library, together with: 10 µM Mg2+; baseline: high Mg2+ state, higher = stronger signaling).
The log2 enrichment of `GGGAGUUCUACAGUCCGACGAUCCUCAAGUCCUGUGCUACACAUCGUAUGUACCGAAUCGGGGUGGGGUGGGUGGGGAAAGUAUUAUGUUACGCCGUUCGGAUCUGCACUUCCUGGAAUUCUCGGGUGUCAAGG (7-deaza-guanosine replaces G)` is reported as -0.184 (Fmr1 C-terminal low-complexity region; RNA Bind-n-Seq; RNA, in vitro; 200 nM, whole 134-nt RNA, ends assumed, together with: 150 mM LiCl; baseline: input library, higher = stronger binding).

Repeated from above (sample 2):
`CGCCGGGC` has an E-score of -0.407.
